Measurements gathered from unrelated publications.
A part holds a random share of what one study measured.

Block 1 — method: protein-binding microarray; form: double-stranded DNA, one strand shown; matrix: in vitro; tested at: not given; reading: higher = stronger binding
Target: Transcription factor Sp1 (SP1, Homo sapiens, UniProt P08047, residues 1-785, full length assumed)
Chain of UniProt P08047 (whole entry, looked up): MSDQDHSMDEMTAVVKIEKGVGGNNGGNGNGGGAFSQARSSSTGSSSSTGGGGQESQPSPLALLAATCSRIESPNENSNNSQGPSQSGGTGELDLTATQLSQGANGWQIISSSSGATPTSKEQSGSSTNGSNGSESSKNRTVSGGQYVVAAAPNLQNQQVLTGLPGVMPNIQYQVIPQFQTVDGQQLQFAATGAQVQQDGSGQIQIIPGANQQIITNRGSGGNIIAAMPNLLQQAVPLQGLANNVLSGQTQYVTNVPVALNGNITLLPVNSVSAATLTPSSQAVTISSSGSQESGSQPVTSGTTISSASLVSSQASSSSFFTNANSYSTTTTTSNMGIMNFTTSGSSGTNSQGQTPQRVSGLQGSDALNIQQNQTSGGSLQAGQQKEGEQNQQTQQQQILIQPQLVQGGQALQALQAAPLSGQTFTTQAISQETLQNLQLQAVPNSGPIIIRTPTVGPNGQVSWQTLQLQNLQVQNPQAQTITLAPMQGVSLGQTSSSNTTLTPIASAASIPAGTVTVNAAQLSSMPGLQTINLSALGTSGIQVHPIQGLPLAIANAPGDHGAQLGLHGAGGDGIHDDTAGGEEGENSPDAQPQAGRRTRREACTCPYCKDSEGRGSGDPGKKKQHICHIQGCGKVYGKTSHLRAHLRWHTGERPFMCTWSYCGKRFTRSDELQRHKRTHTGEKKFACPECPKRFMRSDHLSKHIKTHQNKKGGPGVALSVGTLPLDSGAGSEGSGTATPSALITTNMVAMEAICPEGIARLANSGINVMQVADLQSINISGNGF
Notes: k-mer, scored over probes, only values ≥0.25
| Sequence | E-score |
| --- | --- |
| ACCGCCCC | 0.484 |
| GTAGGGGA | 0.255 |
| ATCCCCTA | 0.27 |
| CGTATACG | 0.334 |
| CAGTATAA | 0.253 |

Block 2 — method: protein-binding microarray; form: double-stranded DNA, one strand shown; matrix: in vitro; tested at: 250 nM; notes: 60-bp whole probe; together with: salmon DNA 0.4 mg/ml; relative to: random background probes; reading: higher = stronger binding; shared flanks, not repeated: GCCTAGCAC … GTCTTGATTCGCTTGACGCTGCTG
Target: Interferon regulatory factor 5, full length, phosphomimetic (IRF5, Homo sapiens, UniProt Q13568-2, residues 1-514, K96S/S451D/S453D/S456D/S462D)
| Sequence | log fluorescence [z-score] |
| --- | --- |
| GGCGATTTCGGGTTTCGAGACGTGCTA | 5.49 |
| TCATAATTCTTTGCTCATACTGTGCTA | 0.946 |
| GACGGACTGGGGTATCCGGACGTGCTA | -0.712 |
| AGGACTCTGGAGGTTGAGAAAGTGCTA | -0.719 |
| TTAGGTTTCGGTATGGGTTAGTGCTAG | 10.2 |
| TTAAAACTGGGGTATCGATTAGTGCTA | 3.03 |

Block 3 — method: RNA Bind-n-Seq; form: RNA; matrix: in vitro; tested at: 365 nM; relative to: no-protein control; reading: higher = stronger binding
Target: RNA binding protein fox-1 homolog 2, RRM domain, GST-SBP tag (RBFOX2, Homo sapiens, UniProt O43251-10, residues 100-194)
Notes: natural RNA segment, single round, ends assumed
Target sequence (chain): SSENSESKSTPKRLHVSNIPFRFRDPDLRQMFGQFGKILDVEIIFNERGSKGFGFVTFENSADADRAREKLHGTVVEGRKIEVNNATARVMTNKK
| Sequence | RBNS enrichment (R) |
| --- | --- |
| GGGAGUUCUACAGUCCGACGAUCUCUGAAAUGUGAAAAGCCUGCACUCUUCCUGUGGGCUGCGCAGUGGGCUCGGGGGUUGGGGGGUGCCGGGGCGAUGCUUCCACCCUGGACUGAGUGUUCGGGGCAGCCUGUGGAAUUCUCGGGUGCCAA | 0.576 |
| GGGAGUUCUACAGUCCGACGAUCUGGGCAUCACCACCCUUGUUUGAUCUGCCUUGGAUUUCCUCUUGGAGCUUAUGUGCAGAUAGAGGUUGUACUUGGUAAGAUUUCUAAUGUGUUCUAUGGGUUUCAAUUCUUGGAAUUCUCGGGUGCCAA | 0.308 |
| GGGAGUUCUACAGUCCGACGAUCAACAAAAACACUGCGCAUUUCAAUCAUCUGCACCUUUCCCUCGUUUUGCAUUAGUACUGAAAUCUGUACCCUACAGACCUUAUAAUAAUUUGCAAAGUGACUCUGACUAAUGGAAUUCUCGGGUGCCAA | 0.429 |
| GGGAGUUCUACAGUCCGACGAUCUGAACAUAGGUCUCUGGCCUCACGGAGCUCCCAGUCCUAAUCACAUUCAAGGUCACCAGGUACAGUUGUACAGGUUGUACACUGCAGGAGAGUGCCUGGCAAAAAGAUCAUGGAAUUCUCGGGUGCCAA | 0.354 |
| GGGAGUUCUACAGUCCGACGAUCUAUGUGAGUAGUCUUAUGUAAAGUAUGUUUUUACAUUAUGCAAAUAAAACCCAAUACUUUUGUCCAAUGUGGUUGGUCAAAUCAACUGAAUAAAUUCAGUAUUUUGCCUUUGGAAUUCUCGGGUGCCAA | 0.621 |
| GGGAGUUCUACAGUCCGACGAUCGAAUGUACUUUGUAUAAUUUUAGUGGAAUUAUUGUUAUUAAAGAGAAUAAAAUUUUUACAAUCAUAACUGGCUUUUUCUAAGUAACUAGCUGCAAGAAGGAAUGUAUAUCUGGAAUUCUCGGGUGCCAA | 0.722 |

Other studies, line by line
| Substance | target | test | system | conditions | how to read | quantity | result |
| --- | --- | --- | --- | --- | --- | --- | --- |
| PhoQ, residues 284 288 289 292 302 303 TSTLRA | PhoP, residues 12 14 15 18 19 AWHSL (Escherichia coli, UniProt P23836) | Sort-seq, measured: YFP reporter | E. coli | PhoQ-PhoP variant library, together with: 10 µM Mg2+ | relative to: high Mg2+ state, higher = stronger signaling | fold induction | 0.588 |

Excerpt of the above (block 1):
| Sequence | E-score |
| --- | --- |
| CGTATACG | 0.334 |
